Experimental data collected from several papers.
Parts stem from different laboratories: compare values within a part only. Positions count from the first letter of the parent shown.

Series 1 — target: CCNB3, cyclin fold, Cln2 fusion (human); method: yeast growth competition, sequencing; matrix: yeast; notes: strong parent motif; relative to: not given; reading: higher = stronger binding
Starting sequence: viral docking peptide; KGVKRKLFAEDSS; partner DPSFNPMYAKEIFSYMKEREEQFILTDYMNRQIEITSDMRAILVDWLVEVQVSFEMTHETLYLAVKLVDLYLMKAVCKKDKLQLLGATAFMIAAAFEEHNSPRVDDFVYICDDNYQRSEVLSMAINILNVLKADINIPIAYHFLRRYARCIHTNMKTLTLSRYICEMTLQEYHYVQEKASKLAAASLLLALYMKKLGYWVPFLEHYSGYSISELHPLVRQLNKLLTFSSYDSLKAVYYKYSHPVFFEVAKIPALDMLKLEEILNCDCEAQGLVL
Variant | normalised enrichment score
L7S | 0.2
S12T | 3.09
G2E | 2.52
G2Q | 2.41
S12H | 2.61
K4N | 1.27
A9G | 2.35
R5T | 0.202

Series 2 — observed: binding; method: phage display NGS; form: peptide; tested at: concentration not given; notes: panning round 4; relative to: input library
Target: UDP-N-acetylglucosamine--peptide N-acetylglucosaminyltransferase 110 kDa subunit (OGT, Homo sapiens, UniProt O15294)
Construct (O15294 1-1046): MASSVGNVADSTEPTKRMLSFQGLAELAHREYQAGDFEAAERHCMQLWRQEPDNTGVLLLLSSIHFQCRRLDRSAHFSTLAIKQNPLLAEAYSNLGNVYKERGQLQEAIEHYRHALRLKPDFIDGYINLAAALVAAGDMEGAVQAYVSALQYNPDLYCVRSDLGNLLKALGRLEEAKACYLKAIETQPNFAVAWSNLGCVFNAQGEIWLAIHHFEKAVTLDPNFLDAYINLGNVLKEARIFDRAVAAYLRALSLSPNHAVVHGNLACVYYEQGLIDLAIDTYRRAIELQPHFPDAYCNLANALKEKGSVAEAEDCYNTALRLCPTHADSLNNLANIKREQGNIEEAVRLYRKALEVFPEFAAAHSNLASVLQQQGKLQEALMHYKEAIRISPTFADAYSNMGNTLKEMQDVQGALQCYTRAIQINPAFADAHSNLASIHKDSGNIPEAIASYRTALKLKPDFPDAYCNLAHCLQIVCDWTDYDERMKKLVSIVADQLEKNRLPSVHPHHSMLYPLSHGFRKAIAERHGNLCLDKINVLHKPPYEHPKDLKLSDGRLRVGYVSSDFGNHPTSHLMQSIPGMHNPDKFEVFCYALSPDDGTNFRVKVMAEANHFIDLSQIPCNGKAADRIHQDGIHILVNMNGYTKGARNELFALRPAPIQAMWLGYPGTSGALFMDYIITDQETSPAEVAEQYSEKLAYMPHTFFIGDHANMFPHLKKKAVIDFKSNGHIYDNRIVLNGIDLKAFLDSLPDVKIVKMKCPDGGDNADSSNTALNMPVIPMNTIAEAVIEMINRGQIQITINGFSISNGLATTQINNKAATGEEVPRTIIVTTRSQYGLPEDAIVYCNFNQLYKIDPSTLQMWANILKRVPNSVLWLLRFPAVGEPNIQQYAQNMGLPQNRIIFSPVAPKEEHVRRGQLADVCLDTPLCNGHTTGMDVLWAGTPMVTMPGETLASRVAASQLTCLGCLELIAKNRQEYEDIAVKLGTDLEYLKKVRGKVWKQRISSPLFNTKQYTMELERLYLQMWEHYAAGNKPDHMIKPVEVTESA
Molecule | enrichment fold change
VRFPPQYQMVYKTTV | 1.51
TDPFYPPAYQIQVFK | 1.56
NQQQPQYQILYAANR | 1.59
MWMPQYQITYDPRVT | 1.9
GPRNLIPKYQIQYTY | 1.83
NMYMPKYRITYPMYD | 1.56
VEQSSPFAPQYQIQM | 1.96
QSNYMPKYTIIIPKA | 2.35

Series 3 — target: vanadate, free oxyanion; method: microfluidic competitive inhibition; matrix: in vitro, cell-free expressed; tested at: not given; reading: lower = stronger binding
Notes: derived from inhibition constants, unchanged parent 676 nM
Starting sequence: PafA, mature enzyme, eGFP fusion (Elizabethkingia meningoseptica, UniProt Q9KJX5); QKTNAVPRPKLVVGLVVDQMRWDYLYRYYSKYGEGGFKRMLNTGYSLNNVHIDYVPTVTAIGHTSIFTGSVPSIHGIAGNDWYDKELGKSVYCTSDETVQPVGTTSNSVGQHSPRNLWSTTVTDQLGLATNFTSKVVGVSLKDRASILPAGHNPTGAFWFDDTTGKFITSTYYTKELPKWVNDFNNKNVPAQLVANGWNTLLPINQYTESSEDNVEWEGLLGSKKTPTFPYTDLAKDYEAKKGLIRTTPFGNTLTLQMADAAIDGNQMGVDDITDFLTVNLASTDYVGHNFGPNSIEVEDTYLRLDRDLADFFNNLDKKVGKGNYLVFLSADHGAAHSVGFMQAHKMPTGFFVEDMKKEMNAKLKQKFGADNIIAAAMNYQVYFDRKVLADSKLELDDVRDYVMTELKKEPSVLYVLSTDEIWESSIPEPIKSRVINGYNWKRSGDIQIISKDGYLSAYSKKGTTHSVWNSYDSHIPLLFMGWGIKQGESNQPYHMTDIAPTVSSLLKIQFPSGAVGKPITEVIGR
Variant | oxyanion analog dissociation constant [nM]
T497G | 478
Y472G | 356
E209V | 712
H152V | 744
G62A | 165
S471V | 848
N324V | 863
V413A | 743

Mixed results
SMILES | target | test | conditions | quantity | value
CCS(=O)(=O)c1cc2cc(C[C@@](O)(CC(C)(C)c3ccc(F)cc3C(N)=O)C(F)(F)F)[nH]c2cn1 | Cyclin-dependent kinase 2 homolog (CRK2, Plasmodium falciparum, UniProt P61075) | cell-free assay, competition with immobilised ligand | 1 µM | remaining binding | 100%

Some of these lines once more (mixed results):
SMILES | target | test | conditions | quantity | value
CCS(=O)(=O)c1cc2cc(C[C@@](O)(CC(C)(C)c3ccc(F)cc3C(N)=O)C(F)(F)F)[nH]c2cn1 | Cyclin-dependent kinase 2 homolog (CRK2, Plasmodium falciparum, UniProt P61075) | cell-free assay, competition with immobilised ligand | 1 µM | remaining binding | 100%
